Experimental data gathered from unrelated publications.
Lines come from different studies, so protocols differ. ± marks the error that the study gave.
PPIA: Peptidyl-prolyl cis-trans isomerase A (PPIA, Homo sapiens, UniProt P62937)
Chain of UniProt P62937 (whole entry, looked up): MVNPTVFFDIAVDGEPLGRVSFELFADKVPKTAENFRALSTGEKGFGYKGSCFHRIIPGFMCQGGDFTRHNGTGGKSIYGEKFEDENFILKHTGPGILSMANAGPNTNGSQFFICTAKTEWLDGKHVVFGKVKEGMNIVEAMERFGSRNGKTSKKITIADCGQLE
GRB2: Growth factor receptor-bound protein 2 (GRB2, Homo sapiens, UniProt P62993)
Protein S100-B: Protein S100-B (Homo sapiens, UniProt P04271)
dnaK: dnaK (Escherichia coli, UniProt P0A6Y8)
LRP1 D1085A CR8 domain D1085A: LRP1, CR8 domain D1085A (Homo sapiens, UniProt Q07954, D1085A)
Chain of UniProt Q07954 (whole entry, unmodified, looked up): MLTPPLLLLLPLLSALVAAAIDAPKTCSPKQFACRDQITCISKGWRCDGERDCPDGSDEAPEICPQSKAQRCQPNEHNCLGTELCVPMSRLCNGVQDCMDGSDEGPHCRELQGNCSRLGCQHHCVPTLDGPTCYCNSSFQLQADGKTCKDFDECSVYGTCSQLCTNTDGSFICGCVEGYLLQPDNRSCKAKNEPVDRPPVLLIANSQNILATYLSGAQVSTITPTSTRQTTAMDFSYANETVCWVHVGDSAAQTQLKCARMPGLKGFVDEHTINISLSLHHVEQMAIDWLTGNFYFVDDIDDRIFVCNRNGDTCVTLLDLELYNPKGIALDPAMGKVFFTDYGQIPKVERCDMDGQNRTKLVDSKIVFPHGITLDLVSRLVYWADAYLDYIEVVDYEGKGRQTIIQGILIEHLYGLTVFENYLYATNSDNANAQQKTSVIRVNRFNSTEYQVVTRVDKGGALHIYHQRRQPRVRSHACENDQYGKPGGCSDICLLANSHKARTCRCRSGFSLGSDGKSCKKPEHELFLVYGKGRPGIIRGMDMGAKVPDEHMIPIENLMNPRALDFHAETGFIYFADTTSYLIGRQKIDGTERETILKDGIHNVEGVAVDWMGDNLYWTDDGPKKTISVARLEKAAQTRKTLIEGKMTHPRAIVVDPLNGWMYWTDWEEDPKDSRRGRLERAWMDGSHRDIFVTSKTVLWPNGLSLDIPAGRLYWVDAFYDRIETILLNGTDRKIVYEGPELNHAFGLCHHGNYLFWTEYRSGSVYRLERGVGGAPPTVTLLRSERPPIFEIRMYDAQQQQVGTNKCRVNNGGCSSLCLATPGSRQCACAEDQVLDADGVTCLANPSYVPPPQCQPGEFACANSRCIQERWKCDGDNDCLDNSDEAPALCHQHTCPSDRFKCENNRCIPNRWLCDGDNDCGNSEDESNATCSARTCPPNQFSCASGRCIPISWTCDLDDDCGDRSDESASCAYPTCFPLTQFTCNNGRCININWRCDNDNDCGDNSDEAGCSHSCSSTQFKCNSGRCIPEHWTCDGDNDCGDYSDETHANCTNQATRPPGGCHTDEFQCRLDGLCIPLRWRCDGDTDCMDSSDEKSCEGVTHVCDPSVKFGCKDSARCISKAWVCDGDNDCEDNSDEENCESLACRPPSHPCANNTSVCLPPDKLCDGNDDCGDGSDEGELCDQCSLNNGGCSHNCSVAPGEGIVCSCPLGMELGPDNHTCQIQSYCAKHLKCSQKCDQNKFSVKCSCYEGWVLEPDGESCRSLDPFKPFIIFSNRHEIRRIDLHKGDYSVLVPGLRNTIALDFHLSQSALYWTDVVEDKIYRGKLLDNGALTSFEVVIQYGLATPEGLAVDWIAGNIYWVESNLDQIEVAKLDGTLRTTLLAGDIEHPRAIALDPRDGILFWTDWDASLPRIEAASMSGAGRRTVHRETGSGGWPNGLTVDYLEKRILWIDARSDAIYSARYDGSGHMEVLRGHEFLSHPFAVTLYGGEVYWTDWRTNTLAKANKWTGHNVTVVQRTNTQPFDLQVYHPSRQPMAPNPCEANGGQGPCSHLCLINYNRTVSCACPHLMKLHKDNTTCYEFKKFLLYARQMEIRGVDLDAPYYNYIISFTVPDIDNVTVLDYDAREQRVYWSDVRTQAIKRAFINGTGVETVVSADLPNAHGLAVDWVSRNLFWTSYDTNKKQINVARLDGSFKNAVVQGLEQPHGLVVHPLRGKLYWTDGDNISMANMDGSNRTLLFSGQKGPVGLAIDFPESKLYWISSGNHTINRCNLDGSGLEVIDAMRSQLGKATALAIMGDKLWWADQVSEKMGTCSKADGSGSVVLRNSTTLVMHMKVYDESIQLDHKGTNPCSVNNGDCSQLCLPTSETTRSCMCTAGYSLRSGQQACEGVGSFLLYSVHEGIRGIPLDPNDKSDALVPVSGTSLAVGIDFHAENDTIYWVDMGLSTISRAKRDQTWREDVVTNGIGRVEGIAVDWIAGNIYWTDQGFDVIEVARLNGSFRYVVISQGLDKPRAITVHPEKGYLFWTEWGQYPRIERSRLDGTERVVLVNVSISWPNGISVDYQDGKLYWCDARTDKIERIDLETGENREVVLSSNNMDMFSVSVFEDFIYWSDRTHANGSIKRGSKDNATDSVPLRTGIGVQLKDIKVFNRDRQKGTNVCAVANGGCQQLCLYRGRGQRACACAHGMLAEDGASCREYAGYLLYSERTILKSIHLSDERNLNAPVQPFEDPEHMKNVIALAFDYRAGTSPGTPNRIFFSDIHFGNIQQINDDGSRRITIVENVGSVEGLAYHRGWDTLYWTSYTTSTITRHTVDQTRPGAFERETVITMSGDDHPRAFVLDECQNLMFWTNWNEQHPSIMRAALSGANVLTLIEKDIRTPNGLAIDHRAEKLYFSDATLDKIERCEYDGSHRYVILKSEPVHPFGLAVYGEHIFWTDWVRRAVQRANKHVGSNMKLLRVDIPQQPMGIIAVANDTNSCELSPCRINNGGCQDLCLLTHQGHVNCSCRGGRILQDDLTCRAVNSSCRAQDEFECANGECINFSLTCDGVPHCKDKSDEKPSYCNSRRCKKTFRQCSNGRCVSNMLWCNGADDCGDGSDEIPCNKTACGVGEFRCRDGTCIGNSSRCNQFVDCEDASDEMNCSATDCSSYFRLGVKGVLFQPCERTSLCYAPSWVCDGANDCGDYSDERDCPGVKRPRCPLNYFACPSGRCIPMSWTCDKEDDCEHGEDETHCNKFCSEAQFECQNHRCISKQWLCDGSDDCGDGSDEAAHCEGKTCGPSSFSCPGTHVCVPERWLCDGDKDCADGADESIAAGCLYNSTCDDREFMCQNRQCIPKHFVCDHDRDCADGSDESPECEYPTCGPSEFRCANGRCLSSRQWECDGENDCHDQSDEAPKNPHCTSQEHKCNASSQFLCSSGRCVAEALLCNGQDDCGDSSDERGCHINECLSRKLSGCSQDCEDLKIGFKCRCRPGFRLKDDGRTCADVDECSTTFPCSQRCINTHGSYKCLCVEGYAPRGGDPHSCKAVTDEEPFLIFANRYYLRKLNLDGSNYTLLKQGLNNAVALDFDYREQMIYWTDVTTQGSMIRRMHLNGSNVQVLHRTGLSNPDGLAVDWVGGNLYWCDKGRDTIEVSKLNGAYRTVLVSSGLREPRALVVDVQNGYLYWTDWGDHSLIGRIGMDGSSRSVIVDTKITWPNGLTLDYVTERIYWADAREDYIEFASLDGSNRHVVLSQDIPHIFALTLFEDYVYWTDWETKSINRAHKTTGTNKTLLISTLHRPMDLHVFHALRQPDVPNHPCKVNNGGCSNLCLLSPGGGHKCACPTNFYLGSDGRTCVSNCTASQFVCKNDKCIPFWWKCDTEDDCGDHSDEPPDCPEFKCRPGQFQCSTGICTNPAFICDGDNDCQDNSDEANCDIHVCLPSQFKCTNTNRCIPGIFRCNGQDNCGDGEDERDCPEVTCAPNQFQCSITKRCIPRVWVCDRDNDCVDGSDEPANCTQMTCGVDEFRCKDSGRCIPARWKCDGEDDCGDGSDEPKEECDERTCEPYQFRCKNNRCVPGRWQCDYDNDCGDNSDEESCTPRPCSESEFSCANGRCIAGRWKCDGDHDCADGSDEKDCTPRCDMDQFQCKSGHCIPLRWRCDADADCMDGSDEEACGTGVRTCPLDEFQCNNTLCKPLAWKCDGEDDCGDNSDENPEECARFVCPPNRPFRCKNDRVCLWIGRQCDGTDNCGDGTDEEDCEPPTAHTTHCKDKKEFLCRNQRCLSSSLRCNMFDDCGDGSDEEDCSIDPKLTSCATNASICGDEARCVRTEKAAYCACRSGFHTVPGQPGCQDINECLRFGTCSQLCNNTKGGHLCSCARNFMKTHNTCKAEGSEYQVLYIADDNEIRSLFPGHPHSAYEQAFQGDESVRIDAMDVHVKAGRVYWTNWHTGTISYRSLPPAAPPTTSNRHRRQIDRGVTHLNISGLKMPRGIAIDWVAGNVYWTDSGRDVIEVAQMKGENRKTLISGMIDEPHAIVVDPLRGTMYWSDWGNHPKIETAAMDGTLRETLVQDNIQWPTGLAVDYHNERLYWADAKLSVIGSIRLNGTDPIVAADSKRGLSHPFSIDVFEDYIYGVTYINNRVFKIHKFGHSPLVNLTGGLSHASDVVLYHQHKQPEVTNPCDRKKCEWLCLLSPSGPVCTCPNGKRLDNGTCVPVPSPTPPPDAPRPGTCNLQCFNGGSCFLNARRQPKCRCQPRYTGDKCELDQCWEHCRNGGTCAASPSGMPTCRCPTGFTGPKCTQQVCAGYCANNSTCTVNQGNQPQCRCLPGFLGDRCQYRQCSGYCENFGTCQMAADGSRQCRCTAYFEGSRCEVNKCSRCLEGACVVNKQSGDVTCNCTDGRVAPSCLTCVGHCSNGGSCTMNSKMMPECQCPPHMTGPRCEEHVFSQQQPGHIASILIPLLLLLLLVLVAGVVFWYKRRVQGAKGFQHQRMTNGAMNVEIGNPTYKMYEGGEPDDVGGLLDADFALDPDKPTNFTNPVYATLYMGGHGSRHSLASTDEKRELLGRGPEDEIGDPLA
HCRTR1: Orexin/Hypocretin receptor type 1 (HCRTR1, Homo sapiens, UniProt O43613)
Chain of UniProt O43613 (whole entry, looked up): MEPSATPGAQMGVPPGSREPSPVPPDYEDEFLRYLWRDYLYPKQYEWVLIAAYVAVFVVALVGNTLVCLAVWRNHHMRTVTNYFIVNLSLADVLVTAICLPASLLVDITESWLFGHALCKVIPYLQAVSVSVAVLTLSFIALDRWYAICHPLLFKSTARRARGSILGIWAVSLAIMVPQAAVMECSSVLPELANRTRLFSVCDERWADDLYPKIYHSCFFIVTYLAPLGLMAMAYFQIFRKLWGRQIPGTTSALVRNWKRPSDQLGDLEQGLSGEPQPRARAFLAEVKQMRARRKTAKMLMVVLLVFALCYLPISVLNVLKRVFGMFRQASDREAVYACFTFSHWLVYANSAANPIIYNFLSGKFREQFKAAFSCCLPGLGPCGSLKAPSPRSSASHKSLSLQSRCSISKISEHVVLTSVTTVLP

COC(=O)c1cc(Cc2ccc(NC(=O)c3ccccc3)c(C(=O)OC)c2)ccc1NC(=O)c1ccccc1
Kd (PPIA; binding, SPR; pH 7.4): 32.3 µM

O=C1C=Cc2c(c(-c3ccco3)cn2S(=O)(=O)c2ccccc2)C1=O
Kd (ELAV-like protein 1 (ELAVL1, Homo sapiens, UniProt Q15717); binding, SPR): 3.34 µM

CC[C@H](C)[C@H](NC(=O)[C@@H](N)CC(=O)O)C(=O)N1CCC[C@H]1C(=O)N1CCC[C@H]1C(=O)N1CCC[C@H]1C(=O)N[C@@H](CCCNC(=N)N)C(=O)N1CCC[C@H]1C(=O)N[C@@H](C)C(=O)N[C@@H](CCCCN)C(=O)N1CCC[C@H]1C(=O)N[C@@H](Cc1c[nH]cn1)C(=O)N1CCC[C@H]1C(=O)O
Kd (GRB2; binding, ITC; pH 8): 968 µM

COC(=O)[C@H](CCCCN)NC(C)=O
Kd (LRP1, CR5 domain (Homo sapiens, UniProt Q07954); binding, tryptophan fluorescence titration; isolated CR5 domain; pH 7.4, 298 K, ionic strength 0.17): 2500 ± 320 µM

c1ccc2nc3ccccc3cc2c1
Kd (HIV-1 SL3 RNA stem-loop; binding, ESI-FTMS titration; pH 7.5): 2.4 ± 0.3 µM

CCCC[C@H](NC(=O)[C@H](Cc1c[nH]c2ccccc12)NC(=O)COCC(=O)NCCCOCCOCCOCCCNC(=O)CN(CCN(CCN(CC(=O)O)CC(=O)O)CC(=O)O)CC(=O)O)C(=O)N[C@@H](CC(=O)O)C(=O)N[C@@H](Cc1ccccc1)C(N)=O
Kd (CCKBR (Homo sapiens, UniProt P32239); Eu time-resolved fluorescence; HEK293 overexpressing CCKBR and MC4R; 1 h, 37 °C, added: Ac-CCK4 1 µM blocking): 0.017 ± 0.002 µM

CSCC[C@H](NC(=O)[C@H](CC(C)C)NC(=O)[C@H](CCCCN)NC(=O)[C@H](CCCCN)NC(=O)[C@H](Cc1c[nH]cn1)NC(=O)[C@H](CCCNC(=N)N)NC(=O)[C@H](CO)NC(=O)[C@@H](NC(=O)[C@H](CO)NC(=O)[C@H](CCC(N)=O)NC(=O)CNC(=O)[C@H](CCCCN)NC(=O)[C@H](CCCCN)NC(=O)[C@H](CO)NC(=O)[C@H](CCCCN)NC(=O)[C@H](CC(C)C)NC(=O)[C@H](Cc1c[nH]cn1)NC(=O)[C@H](CO)NC(=O)[C@H](Cc1ccc(O)cc1)NC(C)=O)[C@@H](C)O)C(=O)N[C@@H](Cc1ccccc1)C(=O)N[C@@H](CCCCN)C(=O)N[C@H](C(=O)N[C@@H](CCC(=O)O)C(N)=O)[C@@H](C)O
Kd (Protein S100-B; binding, isothermal titration calorimetry; high salt, added: Ca2+, NaCl 120 mM): 20 ± 5 µM

NC(=O)C1=CN([C@@H]2O[C@H](COP(=O)(O)OP(=O)(O)OC[C@H]3O[C@@H](n4cnc5c(N)ncnc54)[C@H](OP(=O)(O)O)[C@@H]3O)[C@@H](O)[C@H]2O)C=CC1
Kd (Enoyl-ACP reductase (Thermus thermophilus, UniProt P83818); substrate, stopped-flow reductive half-reaction): 17 µM

OC(c1cc(C23CC4CC(CC(C4)C2)C3)nc2c(Cl)cc(Cl)cc12)C1CCCCN1 (stereo not drawn)
Kd (Ezrin (EZR, Homo sapiens, UniProt P15311); binding, SPR): 6.6 µM

CC(C)C[C@H](NC(=O)[C@H](CCCNC(=N)N)NC(=O)[C@@H](N)CC(N)=O)C(=O)N[C@@H](CC(C)C)C(=O)N[C@H](C(=O)NCC(=O)O)[C@@H](C)O
Kd (dnaK; peptide binding, surface plasmon resonance; added: ADP): 0.962 µM

C/C=C1\C([C@@]2(C)CCCC(C)(C)C2)=CC[C@H]2[C@H](OC(C)=O)O[C@H](OC(C)=O)[C@@H]12 (relative stereo)
Kd (PPIA; binding, SPR; pH 4.5): 2.53 µM

CC(C)C[C@@H](NC(=O)[C@H](NC(=O)[C@@H](CCC(=O)O)NC(=O)[C@H](NC(=O)[C@@H](CC(=O)O)NC(=O)c1ccc(S(N)(=O)=O)cc1)C(C)C)C(C)C)C(N)=O
Kd (CA2 (Homo sapiens, UniProt P00918); binding, SPR): 0.082 µM

Nc1ncnc2c1ncn2[C@@H]1O[C@H](COP(=O)(O)OP(=O)(O)OP(=O)(O)O)[C@@H](O)[C@H]1O
Kd (CSK (Homo sapiens, UniProt P41240)): 17 µM

COC(=O)[C@@H](N)CCCCN
Kd (LRP1 D1085A CR8 domain D1085A; tryptophan fluorescence titration; pH 7.4, 298 K, ionic strength 0.02): 3900 ± 270 µM

6-amino muramyl dipeptide
Kd (NLRP1 (Homo sapiens, UniProt Q9C000); binding, surface plasmon resonance; amine derivative tethered to SAM): 0.362 ± 0.04 µM

COc1ccc(CC2c3cc(OCc4ccccn4)c(OC)cc3CCN2CC(=O)NCc2ccccc2)cc1OC (stereo not drawn)
Kd (HCRTR1): 0.101 ± 0.056 µM

BzATP
Kd (P2X purinoceptor 7 (P2rx7, Rattus norvegicus, UniProt Q64663); bio-layer interferometry): 0.0074 ± 0.0027 µM

Nc1nc2c(ncn2[C@H]2C[C@H](O)[C@@H](COP(=O)(O)OP(=O)(O)OP(=O)(O)O)O2)c(=O)[nH]1
Kd (DNA polymerase delta catalytic subunit, with Pol31/Pol32 (POL3, Saccharomyces cerevisiae, UniProt P15436, D321A/E323A); substrate, pre-steady-state quench flow; opposite template C, no PCNA): 24 ± 9 µM

COc1ccc(CC2c3cc(OS(=O)(=O)c4ccc(C)cc4)c(OC)cc3CCN2CC(=O)NCc2ccccc2)cc1OC (stereo not drawn)
Kd (HCRTR1): 0.118 ± 0.054 µM

CC(C)C[C@H](NC(=O)[C@H](CC(N)=O)NC(=O)[C@H](CCCNC(=N)N)NC(=O)[C@H](CC(=O)O)NC(=O)[C@@H](NC(=O)[C@@H]1CCCN1C(=O)[C@@H]1CCCN1C(=O)[C@@H]1CCCN1)C(C)C)C(=O)N[C@@H](CCCCN)C(=O)N1CCC[C@H]1C(=O)N[C@@H](CC(=O)O)C(=O)N[C@@H](CCCNC(=N)N)C(=O)O
Kd (GRB2; binding, ITC; pH 8): 42 µM

CC[C@H](C)[C@H](NC(=O)[C@H](CCCCN)NC(=O)[C@H](CC(C)C)NC(=O)[C@H](CC(C)C)NC(=O)[C@@H]1CCCN1C(=O)[C@H](CC(C)C)NC(=O)[C@H](CCCCN)NC(=O)[C@@H]1CCCN1C(=O)[C@H](CCCNC(=N)N)NC(=O)[C@@H](NC(=O)[C@H](CCC(N)=O)NC(=O)[C@H](CC(N)=O)NC(C)=O)C(C)C)C(=O)N[C@@H](CC(C)C)C(=O)N[C@@H](Cc1c[nH]cn1)C(=O)N[C@@H](C)C(=O)N[C@@H](C)C(=O)NCC(=O)N[C@@H](C)C(=O)N[C@@H](CCC(N)=O)C(=O)N[C@@H](Cc1ccc(O)cc1)C(N)=O
Kd (Protein S100-B; binding, NMR line shape analysis; 35 °C, low salt): 1 ± 0.5 µM

Aspartic acid methyl ester
Kd (LRP1, CR3 domain (Homo sapiens, UniProt Q07954); tryptophan fluorescence titration; pH 5.5, CR3 domain, low ionic strength): 83000 ± 17000 µM

NC[C@@H]1O[C@H](O[C@H]2[C@@H](O)[C@H](O[C@@H]3[C@@H](O)[C@H](N)C[C@H](N)[C@H]3O[C@H]3O[C@H](CO)[C@@H](O)[C@H](O)[C@H]3N)O[C@@H]2CO)[C@H](N)[C@@H](O)[C@@H]1O
Kd (HIV-1 nucleocapsid-SL2 RNA complex; binding, ESI-FTMS; pH 7.5): 9.3 ± 1.9 µM

COCc1c(C(C)C)nc(C(C)C)c(/C=C/[C@@H](O)C[C@@H](O)CC(=O)O)c1-c1ccc(F)cc1
Kd (Cytochrome P450 2C8 (CYP2C8, Homo sapiens, UniProt P10632); ligand binding, equilibrium spectral binding; purified protein; pH 7.4, 25 °C, high-affinity site, 1% CHAPS): 0.4 ± 0.2 µM

C[C@@H](O)[C@H](NC(=O)[C@H](CC(N)=O)NC(=O)[C@H](CC(N)=O)NC(=O)[C@H](CCCNC(=N)N)NC(=O)[C@@H](N)CC(N)=O)C(=O)NCC(=O)O
Kd (dnaK; peptide binding, surface plasmon resonance; added: ATP): 0.716 µM

phosphatidylinositol 3,4,5-trisphosphate
Kd (Src kinase-associated phosphoprotein 2, PH domain (Skap2, Mus musculus, UniProt Q3UND0); fluorescence polarization direct titration; pH 6.5, 21 °C, compound labelled with BODIPY TMR-X): 8 µM

CNc1ccc(/C=C/c2ccc(OCCOCCOCCF)nc2)cc1 [fluorine-18 labelled]
Kd (Amyloid-beta precursor protein, amyloid-beta aggregates (APP, Homo sapiens, UniProt P05067); saturation binding, refers to: amyloid-beta; human, Alzheimer's disease brain homogenate): 0.00351 µM

NC[C@H]1O[C@H](O[C@H]2[C@H](O)[C@@H](O[C@H]3O[C@H](CO)[C@@H](O)[C@H](N)[C@H]3O)[C@H](N)C[C@@H]2N)[C@H](N)C[C@@H]1O
Kd (HIV-1 SL4 RNA stem-loop; binding, ESI-FTMS titration; pH 7.5): 7.8 ± 1.1 µM

COc1ccc(CC2c3cc(OCC4CCCCC4)c(OC)cc3CCN2CC(=O)NCc2ccccc2)cc1OC (stereo not drawn)
Kd (HCRTR1): > 10 µM

CC1=C(/C=C/C(C)=C/C=C/C(C)=C/C=C/C=C(C)/C=C/C=C(C)/C=C/C2=C(C)C[C@H](O)CC2(C)C)C(C)(C)C[C@H](O)C1
Kd (Steroidogenic acute regulatory protein, mitochondrial, START domain (STAR, Homo sapiens, UniProt P49675); binding, SPR, FastStep injection; 25 °C, immobilized protein): 1.36 ± 0.06 µM

Nc1ncnc2c1ncn2[C@@H]1O[C@H](COP(=O)(O)OP(=O)(O)OP(=O)(O)O)[C@@H](O)[C@H]1O
Kd (parM (Escherichia coli, UniProt P11904); cell-free assay): 0.9 µM

O=C(c1cc(-c2cc(F)cc([N+](=O)[O-])c2O)cc([N+](=O)[O-])c1O)C1CCc2ccccc21 (stereo not drawn)
Kd (PPIA; ligand displacement, FP): 0.54 µM

COc1ccc(CC2c3cc(OCc4cccnc4)c(OC)cc3CCN2CC(=O)NCc2ccccc2)cc1OC (stereo not drawn)
Kd (HCRTR1): 0.277 ± 0.075 µM

CC[n+]1c(-c2ccccc2)c2cc(N)ccc2c2ccc(N)cc21
Kd (HIV-1 nucleocapsid-SL2 RNA complex; binding, ESI-FTMS; pH 7.5): 13.5 ± 0.6 µM

COc1ccc(CC2c3cc(OC)c(OC)cc3CCN2CC(=O)Nc2cc(C)nc3ccccc23)cc1OC (stereo not drawn)
Kd (HCRTR1): 4.51 ± 0.43 µM

CC(C)[C@H](NC(=O)[C@@H]1CCCN1C(=O)[C@@H]1CCCN1C(=O)[C@@H]1CCCN1)C(=O)N[C@@H](CC(=O)O)C(=O)N[C@@H](CCCNC(=N)N)C(=O)N[C@@H](CC(N)=O)C(=O)N[C@@H](C)C(=O)N[C@@H](CCCCN)C(=O)N1CCC[C@H]1C(=O)N[C@@H](CC(=O)O)C(=O)N[C@@H](CCCNC(=N)N)C(=O)O
Kd (GRB2; binding, ITC; pH 8): 129 µM

COc1ccc(CC2c3cc(OC)c(OC)cc3CCN2CC(=O)NCc2ccc(NC(C)=O)cc2)cc1OC (stereo not drawn)
Kd (HCRTR1): > 10 µM

O=C(O)CC(O)(CC(=O)O)C(=O)O
Kd (SLC4A1 (Homo sapiens, UniProt P02730); chloride exchange flux; human red blood cells; 0 °C, external pH 8.0, outward-facing state): 49500 µM

CCCOc1cc2c(cc1OC)CCN(CC(=O)NCc1cccnc1)C2Cc1ccc(OC)c(OC)c1 (stereo not drawn)
Kd (HCRTR1): 0.0419 ± 0.016 µM

COC(=O)[C@@H](N)CCCN=C(N)N
Kd (LRP1 D1085A CR8 domain D1085A; binding, tryptophan fluorescence titration; pH 7.4, 298 K, ionic strength 0.02): 5000 ± 500 µM

COc1ccc(CC2c3cc(OC)c(OC)cc3CCN2CC(=O)Nc2cccc(-c3ccccc3)c2)cc1OC (stereo not drawn)
Kd (HCRTR1): 8.98 ± 2.2 µM

CC(=O)O[C@H]1C(=O)[C@@]2(C)[C@H]([C@H](OC(=O)c3ccccc3)[C@]3(O)C[C@H](OC(=O)[C@H](O)[C@@H](NC(=O)c4ccccc4)c4ccccc4)C(C)=C1C3(C)C)[C@]1(OC(C)=O)CO[C@@H]1C[C@@H]2O
Kd (Cytochrome P450 2C8 (CYP2C8, Homo sapiens, UniProt P10632, K399R/R139K); ligand binding, equilibrium spectral binding; purified protein; pH 7.4, 25 °C, high-affinity site, 1% CHAPS): 0.46 ± 0.12 µM
